Measurements from different studies.
Every numbered part comes from another study and shows a few of its results, in no order. Positions count from the first letter of the parent shown.
UniProt O15294, sequence (whole entry, looked up): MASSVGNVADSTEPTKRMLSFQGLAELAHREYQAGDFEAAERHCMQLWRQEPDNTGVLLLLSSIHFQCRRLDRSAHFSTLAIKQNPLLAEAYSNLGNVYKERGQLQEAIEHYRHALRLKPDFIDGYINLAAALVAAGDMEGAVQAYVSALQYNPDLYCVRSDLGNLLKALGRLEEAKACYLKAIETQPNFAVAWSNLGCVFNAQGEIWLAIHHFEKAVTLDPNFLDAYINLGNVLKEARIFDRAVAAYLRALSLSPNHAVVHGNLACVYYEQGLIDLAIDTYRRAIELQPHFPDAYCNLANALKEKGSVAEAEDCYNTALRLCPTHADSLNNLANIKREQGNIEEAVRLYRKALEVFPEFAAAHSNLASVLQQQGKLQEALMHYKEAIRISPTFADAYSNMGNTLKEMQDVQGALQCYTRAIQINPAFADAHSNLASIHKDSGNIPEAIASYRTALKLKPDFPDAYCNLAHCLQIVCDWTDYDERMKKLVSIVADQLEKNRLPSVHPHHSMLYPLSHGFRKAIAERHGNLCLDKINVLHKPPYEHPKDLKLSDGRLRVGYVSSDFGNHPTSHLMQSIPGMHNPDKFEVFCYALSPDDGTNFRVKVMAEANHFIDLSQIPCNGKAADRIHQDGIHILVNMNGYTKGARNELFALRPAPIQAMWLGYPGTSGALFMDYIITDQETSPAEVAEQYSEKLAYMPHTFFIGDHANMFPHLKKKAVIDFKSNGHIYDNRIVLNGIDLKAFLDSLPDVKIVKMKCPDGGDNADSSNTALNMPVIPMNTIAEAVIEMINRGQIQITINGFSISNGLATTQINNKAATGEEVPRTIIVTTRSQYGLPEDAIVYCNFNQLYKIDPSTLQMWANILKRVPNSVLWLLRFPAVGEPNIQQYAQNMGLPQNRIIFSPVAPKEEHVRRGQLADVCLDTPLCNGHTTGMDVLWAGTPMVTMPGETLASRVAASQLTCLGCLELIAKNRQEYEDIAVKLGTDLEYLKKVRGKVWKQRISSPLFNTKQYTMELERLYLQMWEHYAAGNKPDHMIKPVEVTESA

Block 1
Target: CREB5, bZIP domain (human)
Technique: DHFR protein complementation
Matrix: yeast
Notes: single substitutions, most at no-binding floor
Reference: wild-type JUN-FOS pair
Reading: higher = stronger binding
Starting sequence: JUN, bZIP domain (human); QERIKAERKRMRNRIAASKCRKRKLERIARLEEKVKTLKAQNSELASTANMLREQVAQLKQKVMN; partner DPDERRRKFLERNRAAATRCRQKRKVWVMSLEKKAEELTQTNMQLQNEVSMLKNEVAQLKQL
Substitution | binding fitness [natural log]
S43G | -0.327
I28D | -0.609
K36Y | -0.321
A29Y | -0.214
L59A | -1.15
K36Q | -0.341
A40R | -0.277
K39Y | -0.539

Block 2
Target: CRIPT, C-terminal peptide
Technique: DHFR complementation, deep sequencing
Matrix: yeast
Notes: single substitutions, model-inferred values
Reference: wild type
Reading: higher = weaker binding
Starting sequence: ERBIN, PDZ domain 1 (human); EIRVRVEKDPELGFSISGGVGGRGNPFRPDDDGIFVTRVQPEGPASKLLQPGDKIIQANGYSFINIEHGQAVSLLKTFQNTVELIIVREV; partner TKNYKQTSV
Substitution | binding free energy change
T37H | 0.627 kcal/mol
E67M | 0.232 kcal/mol
V6C | 0.0504 kcal/mol
I86N | 1.49 kcal/mol
E67K | 0.157 kcal/mol
L74W | -0.0847 kcal/mol
L75H | 0.765 kcal/mol
V39Q | 0.556 kcal/mol

Other studies, line by line
Molecule | target or system | test | system | setting | how to read | measurement | result
HNRNPU (Homo sapiens, UniProt Q00839) | AGO3 (Homo sapiens, UniProt Q9H9G7) | cross-linking MS | cell fractions | together with: DSSO | – | cross-linked residues | K352 to T472
HSTPYHYSHVHEPYF | UDP-N-acetylglucosamine--peptide N-acetylglucosaminyltransferase 110 kDa subunit (OGT, Homo sapiens, UniProt O15294) | binding, phage display NGS | peptide | concentration not given | reference: input library | enrichment fold change | 4.06
CEP120 (Homo sapiens, UniProt Q8N960) | RRBP1 (Homo sapiens, UniProt Q9P2E9) | cross-linking MS | cell fractions | together with: DMTMM | – | cross-linked residues | K365 to D1386
PGRMC1 (Homo sapiens, UniProt O00264) | DHCR24 (Homo sapiens, UniProt Q15392) | cross-linking MS | – | hits only | – | interaction screen | cross-linked
PES1 (Homo sapiens, UniProt O00541) | BOP1 (Homo sapiens, UniProt Q14137) | cross-linking MS | cell fractions | together with: DSSO | – | cross-linked residues | K564 to K339

Some of these lines once more (other studies, line by line):
Molecule | target or system | test | system | setting | how to read | measurement | result
HNRNPU (Homo sapiens, UniProt Q00839) | AGO3 (Homo sapiens, UniProt Q9H9G7) | cross-linking MS | cell fractions | together with: DSSO | – | cross-linked residues | K352 to T472
HSTPYHYSHVHEPYF | UDP-N-acetylglucosamine--peptide N-acetylglucosaminyltransferase 110 kDa subunit (OGT, Homo sapiens, UniProt O15294) | binding, phage display NGS | peptide | concentration not given | reference: input library | enrichment fold change | 4.06
